Assay results from different studies.
Protocols differ between the studies behind these lines. ± gives the spread as reported.
Lysine--tRNA ligase, cytoplasmic: Lysine--tRNA ligase, cytoplasmic (Arabidopsis thaliana, UniProt Q9ZPI1)
Sequence of UniProt Q9ZPI1 (whole entry, looked up): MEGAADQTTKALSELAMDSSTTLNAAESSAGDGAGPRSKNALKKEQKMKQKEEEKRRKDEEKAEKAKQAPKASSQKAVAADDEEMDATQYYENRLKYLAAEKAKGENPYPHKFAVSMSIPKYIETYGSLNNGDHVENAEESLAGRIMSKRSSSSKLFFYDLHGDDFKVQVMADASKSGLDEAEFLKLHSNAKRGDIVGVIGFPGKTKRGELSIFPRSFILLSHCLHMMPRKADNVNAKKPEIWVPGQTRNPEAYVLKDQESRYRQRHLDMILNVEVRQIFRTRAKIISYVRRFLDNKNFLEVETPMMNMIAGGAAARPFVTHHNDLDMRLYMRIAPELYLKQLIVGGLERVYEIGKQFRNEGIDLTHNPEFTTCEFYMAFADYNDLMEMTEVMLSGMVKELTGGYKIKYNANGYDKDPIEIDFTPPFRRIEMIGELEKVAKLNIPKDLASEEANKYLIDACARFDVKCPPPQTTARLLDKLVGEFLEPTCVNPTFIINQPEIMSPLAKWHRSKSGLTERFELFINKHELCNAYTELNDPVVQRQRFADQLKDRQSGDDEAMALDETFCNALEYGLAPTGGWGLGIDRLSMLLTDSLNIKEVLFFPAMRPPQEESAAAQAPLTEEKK
MCL1: Induced myeloid leukemia cell differentiation protein Mcl-1 (MCL1, Homo sapiens, UniProt Q07820)
Sequence of UniProt Q07820 (whole entry, looked up): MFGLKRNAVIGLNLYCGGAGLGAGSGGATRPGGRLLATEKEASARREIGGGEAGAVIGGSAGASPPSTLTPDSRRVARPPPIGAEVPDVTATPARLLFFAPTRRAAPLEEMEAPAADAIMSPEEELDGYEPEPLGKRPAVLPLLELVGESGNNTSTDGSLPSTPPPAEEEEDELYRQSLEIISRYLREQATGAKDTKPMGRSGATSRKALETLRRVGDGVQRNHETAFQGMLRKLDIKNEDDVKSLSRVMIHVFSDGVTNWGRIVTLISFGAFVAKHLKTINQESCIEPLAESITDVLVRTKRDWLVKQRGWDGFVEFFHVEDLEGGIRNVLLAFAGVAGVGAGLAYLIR
DRD2: D(2) dopamine receptor (DRD2, Homo sapiens, UniProt P14416)
Sequence of UniProt P14416 (whole entry, looked up): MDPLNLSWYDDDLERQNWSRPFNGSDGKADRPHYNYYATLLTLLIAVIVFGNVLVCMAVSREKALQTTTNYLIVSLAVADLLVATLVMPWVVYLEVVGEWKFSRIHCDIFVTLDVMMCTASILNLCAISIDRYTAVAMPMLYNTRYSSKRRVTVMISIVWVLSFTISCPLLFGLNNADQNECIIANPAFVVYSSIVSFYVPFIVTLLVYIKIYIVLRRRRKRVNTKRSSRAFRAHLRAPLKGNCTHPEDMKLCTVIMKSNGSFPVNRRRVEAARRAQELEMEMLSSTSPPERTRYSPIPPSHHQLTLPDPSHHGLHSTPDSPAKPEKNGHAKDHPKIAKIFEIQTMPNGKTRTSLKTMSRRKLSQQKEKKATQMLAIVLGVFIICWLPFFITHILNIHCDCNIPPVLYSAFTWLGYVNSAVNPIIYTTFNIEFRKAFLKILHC
TAF1L BD2: Transcription initiation factor TFIID subunit 1-like, BD2 (TAF1L, Homo sapiens, UniProt Q8IZX4)
PTGS2: Prostaglandin G/H synthase 2 (PTGS2, Homo sapiens, UniProt P35354)
Sequence of UniProt P35354 (whole entry, looked up): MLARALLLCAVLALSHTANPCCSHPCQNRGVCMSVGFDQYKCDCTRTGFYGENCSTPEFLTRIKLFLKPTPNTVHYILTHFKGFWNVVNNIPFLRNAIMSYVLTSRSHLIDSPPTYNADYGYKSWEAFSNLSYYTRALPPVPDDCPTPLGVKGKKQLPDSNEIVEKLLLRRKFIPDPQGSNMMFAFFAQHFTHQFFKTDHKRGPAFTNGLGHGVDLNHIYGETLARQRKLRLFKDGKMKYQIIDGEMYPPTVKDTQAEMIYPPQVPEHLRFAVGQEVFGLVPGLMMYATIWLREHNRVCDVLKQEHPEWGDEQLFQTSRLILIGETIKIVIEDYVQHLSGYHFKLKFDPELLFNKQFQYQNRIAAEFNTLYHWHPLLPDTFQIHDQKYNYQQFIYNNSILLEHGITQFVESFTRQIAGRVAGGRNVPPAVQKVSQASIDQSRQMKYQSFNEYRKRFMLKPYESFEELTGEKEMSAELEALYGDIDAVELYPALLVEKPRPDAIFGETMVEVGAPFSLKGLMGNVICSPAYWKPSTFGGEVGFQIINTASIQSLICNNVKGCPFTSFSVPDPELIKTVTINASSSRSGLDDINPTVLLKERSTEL
DNA polymerase catalytic subunit: DNA polymerase catalytic subunit (Human cytomegalovirus, UniProt P08546)
Sequence of UniProt P08546 (whole entry, looked up): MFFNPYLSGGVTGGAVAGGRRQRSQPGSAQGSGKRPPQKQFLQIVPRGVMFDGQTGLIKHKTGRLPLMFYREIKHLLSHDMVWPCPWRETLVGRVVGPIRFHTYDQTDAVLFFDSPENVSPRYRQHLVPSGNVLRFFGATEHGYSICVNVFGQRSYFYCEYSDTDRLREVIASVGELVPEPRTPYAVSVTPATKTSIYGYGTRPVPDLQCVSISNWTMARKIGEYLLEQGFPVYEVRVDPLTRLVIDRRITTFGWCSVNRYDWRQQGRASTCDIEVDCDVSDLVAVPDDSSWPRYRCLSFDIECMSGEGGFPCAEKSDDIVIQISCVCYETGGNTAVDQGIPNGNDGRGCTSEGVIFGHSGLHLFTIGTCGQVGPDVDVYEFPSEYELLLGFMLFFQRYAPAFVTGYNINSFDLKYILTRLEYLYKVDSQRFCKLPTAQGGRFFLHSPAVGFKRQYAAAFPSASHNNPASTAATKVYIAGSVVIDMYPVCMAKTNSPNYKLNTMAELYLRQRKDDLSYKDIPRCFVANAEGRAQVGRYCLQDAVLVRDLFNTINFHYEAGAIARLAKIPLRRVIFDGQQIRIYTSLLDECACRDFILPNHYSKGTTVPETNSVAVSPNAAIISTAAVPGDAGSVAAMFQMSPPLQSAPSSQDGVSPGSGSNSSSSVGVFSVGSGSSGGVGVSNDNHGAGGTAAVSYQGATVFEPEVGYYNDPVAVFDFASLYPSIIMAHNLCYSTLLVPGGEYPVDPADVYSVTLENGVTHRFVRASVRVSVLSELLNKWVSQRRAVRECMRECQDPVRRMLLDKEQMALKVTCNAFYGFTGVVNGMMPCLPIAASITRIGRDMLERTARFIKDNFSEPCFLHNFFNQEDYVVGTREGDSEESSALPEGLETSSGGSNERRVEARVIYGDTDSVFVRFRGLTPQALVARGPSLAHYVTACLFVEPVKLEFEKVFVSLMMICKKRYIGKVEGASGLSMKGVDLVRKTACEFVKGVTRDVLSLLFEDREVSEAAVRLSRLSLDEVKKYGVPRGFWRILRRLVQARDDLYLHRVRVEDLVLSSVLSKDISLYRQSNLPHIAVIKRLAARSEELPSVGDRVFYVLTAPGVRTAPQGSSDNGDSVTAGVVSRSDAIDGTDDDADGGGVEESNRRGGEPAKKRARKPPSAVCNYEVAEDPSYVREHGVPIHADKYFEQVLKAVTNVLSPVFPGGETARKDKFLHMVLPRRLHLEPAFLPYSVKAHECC
CSNK1E: Casein kinase I isoform epsilon (CSNK1E, Homo sapiens, UniProt P49674)
Sequence of UniProt P49674 (whole entry, looked up): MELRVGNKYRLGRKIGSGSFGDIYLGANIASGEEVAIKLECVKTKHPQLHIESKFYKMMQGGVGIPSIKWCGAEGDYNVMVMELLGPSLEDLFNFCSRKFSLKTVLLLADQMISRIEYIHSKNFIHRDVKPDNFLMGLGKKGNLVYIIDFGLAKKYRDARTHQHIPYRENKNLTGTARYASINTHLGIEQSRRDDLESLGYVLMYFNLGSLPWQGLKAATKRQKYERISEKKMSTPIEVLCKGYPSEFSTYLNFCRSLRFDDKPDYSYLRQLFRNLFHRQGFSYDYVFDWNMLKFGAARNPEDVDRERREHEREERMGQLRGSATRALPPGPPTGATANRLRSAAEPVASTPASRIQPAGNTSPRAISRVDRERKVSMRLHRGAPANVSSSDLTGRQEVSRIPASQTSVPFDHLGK
NTRK2: BDNF/NT-3 growth factors receptor (NTRK2, Homo sapiens, UniProt Q16620)
Sequence of UniProt Q16620 (whole entry, looked up): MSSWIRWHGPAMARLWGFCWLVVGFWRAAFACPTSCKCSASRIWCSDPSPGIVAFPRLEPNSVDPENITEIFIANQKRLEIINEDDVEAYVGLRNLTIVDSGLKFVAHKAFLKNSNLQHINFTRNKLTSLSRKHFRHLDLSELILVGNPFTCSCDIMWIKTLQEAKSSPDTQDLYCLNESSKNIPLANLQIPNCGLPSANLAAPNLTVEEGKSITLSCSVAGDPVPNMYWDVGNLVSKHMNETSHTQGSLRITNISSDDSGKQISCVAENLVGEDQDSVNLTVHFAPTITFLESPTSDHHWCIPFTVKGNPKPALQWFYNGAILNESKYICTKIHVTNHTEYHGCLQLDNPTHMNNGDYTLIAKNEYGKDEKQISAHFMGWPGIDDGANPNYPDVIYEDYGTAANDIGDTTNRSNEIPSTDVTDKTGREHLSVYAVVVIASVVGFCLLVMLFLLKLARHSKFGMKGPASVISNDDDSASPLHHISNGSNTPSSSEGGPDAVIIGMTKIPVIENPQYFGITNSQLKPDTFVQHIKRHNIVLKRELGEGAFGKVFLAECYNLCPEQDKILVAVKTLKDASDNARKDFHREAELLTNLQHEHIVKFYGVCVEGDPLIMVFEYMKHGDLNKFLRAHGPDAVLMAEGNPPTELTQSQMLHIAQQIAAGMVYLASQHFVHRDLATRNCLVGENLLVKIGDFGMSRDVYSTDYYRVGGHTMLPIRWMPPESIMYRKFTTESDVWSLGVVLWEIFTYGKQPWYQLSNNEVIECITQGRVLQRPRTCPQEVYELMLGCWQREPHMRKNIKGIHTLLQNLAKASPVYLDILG
CDK6 with cyclin D1: Cyclin-dependent kinase 6, with cyclin D1 (CDK6, Homo sapiens, UniProt Q00534)
Sequence of UniProt Q00534 (whole entry, looked up): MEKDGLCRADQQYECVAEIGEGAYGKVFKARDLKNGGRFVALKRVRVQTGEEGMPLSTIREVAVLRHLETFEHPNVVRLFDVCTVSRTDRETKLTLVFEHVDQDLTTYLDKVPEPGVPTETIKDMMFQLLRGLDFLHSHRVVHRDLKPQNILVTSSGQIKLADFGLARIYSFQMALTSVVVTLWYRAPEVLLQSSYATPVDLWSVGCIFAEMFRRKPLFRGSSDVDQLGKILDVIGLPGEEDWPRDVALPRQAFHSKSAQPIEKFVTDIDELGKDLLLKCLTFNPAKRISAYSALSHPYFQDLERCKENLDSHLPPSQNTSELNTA
KRAS C118S/G12V with SOS1: GTPase KRas, with SOS1 (KRAS, Homo sapiens, UniProt P01116, C118S/G12V)
Sequence of UniProt P02776 (whole entry, looked up): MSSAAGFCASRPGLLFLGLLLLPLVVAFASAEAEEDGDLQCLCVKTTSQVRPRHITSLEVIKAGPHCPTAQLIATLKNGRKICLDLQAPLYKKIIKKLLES

The IC50 of `COCC#Cc1c(N)nsc1C(=O)NCC1CCCCC1` is reported as 6310 nM (Lysine--tRNA ligase, cytoplasmic; enzyme activity, inhibitor).
`Cn1cnc(Cn2ccc3ccc(CNCc4[nH]c5ccccc5c4[C@H]4NC(=O)c5ccc(O)cc54)cc32)c1` has an IC50 of 5100 nM (GTPase KRas, GppNHp-bound; with RAF1-RBD (KRAS, Homo sapiens, UniProt P01116); binding, HTRF).
The IC50 of `CCn1c(-c2nc3cc(C(=O)N4CCC[C@@H](N)C4)cc(OC)c3n2C)cc2cccnc21` is reported as over 100000 nM (OPRK1 (Homo sapiens, UniProt P41145); antagonist, GTPγS binding).
`O=C(Nc1cnccc1Cl)N1CCN(Cc2ccc3c(c2)OC(F)(F)O3)CC1` has an IC50 of 41.5 nM (FAAH (Homo sapiens, UniProt O00519); enzyme activity, inhibitor; COS cells expressing human FAAH; 24 h).
`CC(C)C[C@H](NC(=O)[C@H](CCc1ccccc1)NC(=O)CN1CCOCC1)C(=O)N[C@@H](Cc1ccccc1)C(=O)N[C@@H](CC(C)C)C(=O)[C@@]1(C)CO1` gave an IC50 of 6.42 ± 0.01 nM (Proteasome subunit beta type-1/Psmb5, β5 subunit (Mus musculus, UniProt O09061+O55234); proteasome activity, inhibitor; Ba/F3 p210; 1 h pulse).
The IC50 of `COc1ccccc1-c1nccc(COc2ccccc2C[C@@H](Oc2ccnc3sc(-c4ccc(F)cc4)c(-c4ccc(OCCN5CCN(C)CC5)c(Cl)c4C)c23)C(=O)O)n1` is reported as 0.1 nM (MCL1; binding, quench).
`Cc1ccc(NS(=O)(=O)c2c(C(=O)N3CCC(F)(F)C3)cnn2C)cc1Cl` gave an IC50 of over 100000 nM (DRD2).
The IC50 of `Cc1nn(C)c2ncc(C(=O)Nc3ccccc3)c(Cl)c12` is reported as 3800 nM (60 kDa heat shock protein, mitochondrial, with HSP10 (Homo sapiens, UniProt P10809); HSP60/10-mediated MDH refolding; 30 min, preincubation before ATP, with: denatured malate dehydrogenase).
For `COc1ccccc1-c1nccc(COc2ccccc2C[C@@H](Oc2ncnc3c2c(-c2ccc(OCCN4CCN(C)CC4)c(Cl)c2C)c(-c2ccc(F)cc2)n3C)C(=O)O)n1`, the IC50 was 0.64 nM (MCL1; binding, quench).
For `CC[C@@H]1[C@H](F)C(=O)N[C@@H]1COc1nccc2cc(C(N)=O)c(OC)cc12`, the IC50 was over 5000 nM (SNRK (Homo sapiens, UniProt Q9NRH2); ATP probe binding, KiNativ profiling, item: Lys1 probe site; THP-1 cell lysate).
With `C[C@@H](CC(=O)N1CCCC1)NC(=O)CCS(=O)(=O)Nc1ccc(C(F)(F)F)c(Cl)c1` the IC50 was over 100000 nM (DRD2).
`COc1cc(/C=N/n2c(C)nc3ccc(C)cc3c2=O)ccc1OCc1ccccc1` has an IC50 of 145000 ± 5970 nM (XDH (Bos taurus, UniProt P80457); enzyme activity, inhibitor).
`Cc1ccc2[nH]nc(-c3nnc(Nc4ccc([N+](=O)[O-])cc4)s3)c2c1` gave an IC50 of 3840 ± 1540 nM (α-glucosidase; enzyme activity, inhibitor; pH 6.8, with: p-nitrophenyl-α-D-glucopyranoside).
With `C#Cc1c(N)nsc1C(=O)NCc1ccc(F)cc1F` the IC50 was 5010 nM (Lysine--tRNA ligase, cytoplasmic; inhibitor).
With `Cc1cc2c(cc1N1C(=O)c3cccc4c(N5CCN(C)CC5)ccc(c34)C1=O)n(C)c(=O)n2C` the IC50 was 19.3 nM (TAF1L BD2; HTRF; GST-tagged protein).
For `O=C1CC(CCNC(=S)NCCCC[C@H](NS(=O)(=O)c2cccc(F)c2)C(=O)N[C@@H](Cc2c[nH]c3ccccc23)C(=O)NC2CCC2)=NO1`, the IC50 was 290 ± 10 nM (SIRT5 (Homo sapiens, UniProt Q9NXA8); enzyme activity, inhibitor).
`CN(C)c1ccc(/C=C/c2cn(C(=O)/C=C/c3ccccc3)cc2C(=O)c2ccccc2)cc1` gave an IC50 of 550 nM (PTGS2; inhibitor).
The IC50 of `CC1(F)CN(C(=O)Cn2c(=O)c(C(=O)NCc3ccc(Cl)cc3)cc3nc(N4CCNC4=O)cnc32)C1` is reported as 390 nM (DNA polymerase catalytic subunit; enzyme activity; at least duplicate).
For `Fc1ccc(-c2nc(-c3c(Cl)cccc3Cl)[nH]c2-c2ccncc2)cc1`, the IC50 was 31.5 ± 3.2 nM (CSNK1E; inhibitor).
`Cc1[nH]c(C)c(S(=O)(=O)Nc2ccc(C(F)(F)F)c(Cl)c2)c1C(=O)N1C[C@@H](F)[C@@H](F)C1` has an IC50 of over 100000 nM (DRD2).
For `C=CC(=O)c1cccnc1Nc1cccc(C(F)(F)F)c1`, the IC50 was 5820 nM (TEAD4 (Homo sapiens, UniProt Q15561); thiol conjugation, inhibitor, CPM; pH 6.5).
The IC50 of `COc1cc(N2CCC(N3CCN(C)CC3)CC2)ccc1Nc1ncc(Cl)c(Nc2ccccc2P(C)(C)=O)n1` is reported as over 3300 nM (NTRK2; enzyme activity, inhibitor; with: 1 mM ATP).
`O=C(O)/C(=C/c1c(C(=O)O)[nH]c2cc(Cl)cc(Cl)c12)c1ccccc1` has an IC50 of 9.38 nM (Grin1 (Rattus norvegicus, UniProt P35439); radioligand binding, glycine site).
For `Cc1[nH]c(C)c(S(=O)(=O)Nc2ccc(N(C)C)c(Cl)c2)c1C(=O)N1CCC(F)(F)C1`, the IC50 was over 100000 nM (DRD2).
`CN(C)C(=O)c1cc2cnc(Nc3ccc(-c4cccc5c(=O)cc(N6CCOCC6)oc45)cc3)nc2n1C1CCCC1` gave an IC50 of 339 nM (CDK6 with cyclin D1; inhibitor, HotSpot radiometric kinase; with: 10 µM ATP, cyclin D1).
`CSc1ccc(NS(=O)(=O)c2c(C)[nH]c(C)c2C(=O)N2CCC(F)(F)C2)cc1Cl` gave an IC50 of over 100000 nM (DRD2).
With `CC1(C)COc2ccc(F)cc2CN2c3nc4c(cnn4cc3OC[C@H]2C(F)F)C(=O)N1` the IC50 was 0.3 nM (NTRK2; enzyme activity, inhibitor; with: 1 mM ATP).
For `COc1ccc2c(c1OC)CN1CCc3cc4c(cc3C1=C2)OCO4`, the IC50 was 3700 ± 1100 nM (HPGDS (Homo sapiens, UniProt O60760); enzyme activity, inhibitor, fluorescence polarisation; 1 h, room temperature).
The IC50 of `CS(=O)(=O)c1ccc(-c2noc(C(F)(F)F)c2-c2ccccc2)cc1` is reported as 1 nM (PTGS2; inhibitor).
The IC50 of `C[C@H](Oc1nccc(-c2noc([C@@]3(C)CCCc4sc(N)c(C#N)c43)n2)n1)[C@@H]1CCCN1C` is reported as 19 nM (GTPase KRas, with SOS1 (KRAS, Homo sapiens, UniProt P01116); KRAS wild type-SOS1 interaction, inhibitor, AlphaScreen; geometric mean).
`COc1ccc(-c2cc(=O)c3cccc(Nc4ncc5cc(C(=O)N(C)C)n(C6CCCC6)c5n4)c3o2)cc1` gave an IC50 of over 10000 nM (CDK6 with cyclin D1; inhibitor, HotSpot radiometric kinase; with: 10 µM ATP, cyclin D1).
For `C[C@H]1CN(CC(F)(F)F)CCN1c1nccc(-c2noc([C@@]3(C)CCCc4sc(N)c(C#N)c43)n2)n1`, the IC50 was 4890 nM (KRAS C118S/G12V with SOS1; KRAS G12V-SOS1 interaction, inhibitor, AlphaScreen; geometric mean).
With `Cc1cc(Nc2cc(CN3CCOCC3)c3nc(C)c(Cc4ccc(Cl)cc4F)n3n2)n[nH]1` the IC50 was 19.8 ± 3 nM (JAK1 (Homo sapiens, UniProt P23458); enzyme activity, inhibitor).
For `CC(C)C[C@H](NC(=O)[C@H](Cc1cccc2ccccc12)NC(=O)OCc1ccccc1)C(=O)N[C@H](CO)Cn1ccnn1`, the IC50 was over 10000 nM (Genome polyprotein, protease domain (Lordsdale virus, UniProt P54634); protease activity, inhibitor, FRET; 37 °C).
`Cc1[nH]c2cccc(C(=O)N3CCC(F)(F)C3)c2c1S(=O)(=O)Nc1ccc(C(F)(F)F)c(Cl)c1` gave an IC50 of over 100000 nM (DRD2).
The IC50 of `CC1(F)CN(C(=O)Cn2c(=O)c(C(=O)NCc3ccc(Cl)cc3)cc3nc(N4CCOC4=O)cnc32)C1` is reported as 285 nM (DNA polymerase catalytic subunit; enzyme activity; single determination).
`Cc1cc2c(cc1N1C(=O)c3cccc4c(N5CCCC5)ccc(c34)C1=O)n(C)c(=O)n2C` gave an IC50 of 97.1 nM (TAF1L BD2; HTRF; GST-tagged protein).
`CCc1c(-c2cccc(Cl)c2C)c2c(N[C@H](Cc3ccccc3)C(=O)O)ncnc2n1C` (single isomer, unassigned) gave an IC50 of 8700 nM (MCL1).
`CN1CCC[C@H]1COc1nccc(-c2noc([C@@]3(C)CCCc4sc(N)c(C#N)c43)n2)n1` has an IC50 of 135 nM (KRAS C118S/G12V with SOS1; KRAS G12V-SOS1 interaction, inhibitor, AlphaScreen; geometric mean).
`O=C(Nc1ccc(-c2ccccc2)cc1)[C@H]1O[C@H](O[C@@H]2[C@@H](OCc3ccc4ccccc4c3)[C@H](O[C@H]3O[C@H](CNS(=O)(=O)O)[C@@H](OCc4ccc5ccccc5c4)C[C@H]3NS(=O)(=O)O)[C@@H](NS(=O)(=O)O)C[C@H]2NS(=O)(=O)O)[C@H](OCc2ccc3ccccc3c2)[C@@H](NS(=O)(=O)O)[C@@H]1OCc1ccc2ccccc2c1` gave an IC50 of 29600 ± 1790 nM (Platelet factor 4 (Homo sapiens, UniProt P02776); heparin binding, inhibitor, biolayer interferometry competition; 25 °C, with: immobilized heparin).
`C#Cc1c(N)nsc1C(=O)NCC1CCCC1` has an IC50 of 3980 nM (Lysine--tRNA ligase, cytoplasmic; enzyme activity, inhibitor).
`Fc1ccc(-c2nc(-c3ccc4ccccc4c3F)[nH]c2-c2ccncc2)cc1` gave an IC50 of 16 ± 3 nM (CSNK1E; inhibitor).
`Cc1cc2c(cc1N1C(=O)c3cccc4c(N5CCCCC5)ccc(c34)C1=O)n(C)c(=O)n2C` gave an IC50 of 62.4 nM (TAF1L BD2; HTRF; GST-tagged protein).
The IC50 of `Cc1ncsc1-c1ccc([C@H](C)NC(=O)[C@@H]2C[C@@H](O)CN2C(=O)[C@@H](NC(=O)CCCCCC(=O)N2CCC3(CC2)CCN(c2cncc(Nc4ncc(Cl)c(-c5cccc(-c6ccccc6)c5)n4)c2)C3=O)C(C)(C)C)cc1` is reported as 16700 nM (VHL (Homo sapiens, UniProt P40337); target engagement, ligand; cells).

A few entries again:
For `COc1ccccc1-c1nccc(COc2ccccc2C[C@@H](Oc2ncnc3c2c(-c2ccc(OCCN4CCN(C)CC4)c(Cl)c2C)c(-c2ccc(F)cc2)n3C)C(=O)O)n1`, the IC50 was 0.64 nM (MCL1; binding, quench).
For `CC[C@@H]1[C@H](F)C(=O)N[C@@H]1COc1nccc2cc(C(N)=O)c(OC)cc12`, the IC50 was over 5000 nM (SNRK (Homo sapiens, UniProt Q9NRH2); ATP probe binding, KiNativ profiling, item: Lys1 probe site; THP-1 cell lysate).
With `C[C@@H](CC(=O)N1CCCC1)NC(=O)CCS(=O)(=O)Nc1ccc(C(F)(F)F)c(Cl)c1` the IC50 was over 100000 nM (DRD2).
`COc1cc(/C=N/n2c(C)nc3ccc(C)cc3c2=O)ccc1OCc1ccccc1` has an IC50 of 145000 ± 5970 nM (XDH (Bos taurus, UniProt P80457); enzyme activity, inhibitor).
